Assay results of several laboratories.
Each line is one published result; not all experiments were run side by side. “And” joins repeats or separate records; there may be more than shown. Numbers after ± are the reported error.
B1: ARGLU1; sequence looked up; chain MGRSRSRSSSRSKHTKSSKHNKKRSRSRSRSRDKERVRKRSKSRESKRNRRRESRSRSRSTNTAVSRRERDRERASSPPDRIDIFGRTVSKRSSLDEKQKREEEEKKAEFERQRKIRQQEIEEKLIEEETARRVEELVAKRVEEELEKRKDEIEREVLRRVEEAKRIMEKQLLEELERQRQAELAAQKAREEEERAKREELERILEENNRKIAEAQAKLAEEQLRIVEEQRKIHEERMKLEQERQRQQKEEQKIILGKGKSRPKLSFSLKTQD

Substance	target or system	test	test system	setting	how to read	endpoint	result
nonaarginine	PorA peptide pore	peptide binding, planar bilayer single-channel recording		0.5 µM, pH 7.4, +15 mV, trans side, 150 mM KCl		koff	100 ± 10 s⁻¹
GWTLNSAGYLLGPRRIDHLLMIKEMPIARGREEAPGA / YAVDNHRSFNDKHGFT-NH2 (C-amide)		RT-qPCR, item: Ocln	mouse, DSS-induced colitis, colon	ip, 3 µM, 3% DSS, unit not given	baseline: Gapdh	mRNA level	3.8 and 1.49 and 2.08 and 1.22
heparin sodium			healthy Chinese adult volunteers	continuous intravenous infusion, 8 IU/kg/h, 5 days		drug-related decreased white cells	25%
colistin	Aspergillus fumigatus		solid minimal medium	20 µM, 4 d	baseline: untreated control	radial growth ratio	0.949 and 0.929 and 0.919
B1 (ARGLU1)		peptide binding, SILAC pull-down		concentration not given	baseline: non-acetylated over acetylated NIT1 peptide	log2 fold change	-0.995
amyloid β-peptide (1–28)		substrate, LC-MS	phosphate buffer	10 µM, 8 h, pH 7.4, 25 °C, together with: MINP(β1–14) 1 equiv		remaining substrate	28.7 ± 3.1%
glucagon		isotope dilution	human, type 1 diabetes	intravenous infusion, 0.12 ng/kg/min, 160 to 180 min		leg extraction	27.9 ± 3.8%
Polymyxin B	Klebsiella pneumoniae	broth microdilution, MH medium	carbapenem-resistant NCCP 15782	16 h, 37 °C		MIC	2 µM
hexaarginine	PorA peptide pore	peptide binding, planar bilayer single-channel recording		0.5 µM, pH 7.4, -25 mV, cis side, 150 mM KCl		kon	1.54e+07 ± 2e+06 M⁻¹ s⁻¹
aspterric acid		root length	Arabidopsis thaliana Col-0 seeds	25 µg/mL, seed germination	baseline: water control	inhibition	99.2%
GWTLNSAGYLLGPHAVDNHRSFNDKHGFT-NH2 (C-amide)			peptide, mouse, DSS-induced colitis	ip, 1.5 µM		colon length	6 cm and 6.2 cm
insulin human		item: CAMK2A mRNA	uninfected mouse, brain	i.p., dose not given	baseline: PBS	fold change	1.2
HVLVMSATRR			peptide, C57BL/6J mice, male, blood	subcutaneous osmotic pump, 3 mg/kg/day peptide basis, 8 weeks		eosinophils	2% and 0% and 1% and 3%
pertussis toxin		immunostaining	humanized mouse, SAH model, meninges	dose not given		p-PKC level	49.1 MFI
Polymyxin B			mouse	intraperitoneal, 20 mg/kg single dose, day 7		survival	100%
DPDPE		RP-HPLC	HALO C18 column	25 µM, acetic acid/acetonitrile, 25 min gradient		retention time	8.87 min
AIMEMPSFYSHGLPR (ADAR protein)		peptide binding, SILAC pull-down		concentration not given	baseline: non-acetylated over acetylated NIT1 peptide	log2 fold change	0.318
PKYVKQNTLKLAT	stimulated healthy donor PBMCs	multimer staining, item: DRB1*01:01 tetramer	peptide	concentration not given, undiluted	baseline: CD4 T cells	antigen-specific CD4 T cells	1.58%

Excerpt of the above:
Substance	target or system	test	test system	setting	how to read	endpoint	result
GWTLNSAGYLLGPHAVDNHRSFNDKHGFT-NH2 (C-amide)			peptide, mouse, DSS-induced colitis	ip, 1.5 µM		colon length	6 cm and 6.2 cm
insulin human		item: CAMK2A mRNA	uninfected mouse, brain	i.p., dose not given	baseline: PBS	fold change	1.2
